Assay results collected from several papers.
Compare with care: the assays were run in different laboratories.
Organism: Enterococcus faecalis

| SMILES | assay | system | setting | MIC |
| --- | --- | --- | --- | --- |
| COc1cc(Cc2cnc(N)nc2N)cc(/C=C/C(=O)N2N=Cc3ccccc3C2CCC(F)(F)F)c1OC (stereo not drawn) | microbial growth, broth dilution | ATCC29212 | – | 0.03 to 0.125 µg/mL |
| CN(C)c1cc(CN2CCCCC2)c(O)c2c1C[C@H]1C[C@H]3[C@H](N(C)C)C(O)=C(C(N)=O)C(=O)[C@@]3(O)C(O)=C1C2=O | microbial growth, broth dilution | – | – | 0.25 µg/mL |
| CNC(CC(C)C)C(=O)NC1C(=O)NC(CC(N)=O)C(=O)NC2C(=O)NC3C(=O)NC(C(=O)NC(C(=O)NC(CCCNC(=N)N)C(=O)OC)c4cc(O)cc(O)c4-c4cc3ccc4O)C(O)c3ccc(c(Cl)c3)Oc3cc2cc(c3OC2OC(CO)C(O)C(O)C2OC2CC(C)(N)C(O)C(C)O2)Oc2ccc(cc2Cl)C1O (stereo not drawn) | broth microdilution | BM 4166 VanA | – | 8 µg/mL |
| CCCCCCCCCCCCCCCCCCSCC1OC(OC2C(N)CC(N)C(OC3OC(CN)C(O)CC3N)C2O)C(O)C(N)C1O (stereo not drawn) | – | ATCC 29212 | – | 150 µg/mL |
| CNC(CC(C)C)C(=O)NC1C(=O)NC(CC(N)=O)C(=O)NC2C(=O)NC3C(=O)NC(C(=O)NC(C(=O)NCCCNC(=N)N)c4cc(O)cc(O)c4-c4cc3ccc4O)C(O)c3ccc(c(Cl)c3)Oc3cc2cc(c3OC2OC(CO)C(O)C(O)C2OC2CC(C)(NCc3ccc(-c4ccc(Cl)cc4)cc3)C(O)C(C)O2)Oc2ccc(cc2Cl)C1O (stereo not drawn) | – | VanB ATCC 51299 | – | 0.04 µg/mL |
| CN(C)c1cc(CNc2ccccc2)c(O)c2c1C[C@H]1C[C@H]3[C@H](N(C)C)C(O)=C(C(N)=O)C(=O)[C@@]3(O)C(O)=C1C2=O | – | JH2-2(pMV158), Tet L efflux | – | 2 µg/mL |
| Oc1c(Br)ccc2cccnc12 | microbial growth, agar dilution | ATCC29212 | – | 35.7 µM |
| CC(C)=CCc1cc2c(cc1O)OC[C@H]1c3ccc(O)c(CC=C(C)C)c3O[C@@H]21 | – | ATCC 29212 | – | 2 µg/mL |
| CCN(CC)CCCN1/C(=C/c2cc(C)[n+](C)c3ccccc23)Sc2ccccc21 | microbial growth, broth dilution | ATCC29212 | – | 32 µg/mL |
| CC(C)C(O)C(NC(=O)[C@H](Cc1ccc(O)cc1)NC(=O)C(Cc1ccc(O)c(Cl)c1)[N+](C)(C)C)C(=O)N[C@@H](C)C(=O)O (stereo partly drawn) | CLSI broth microdilution | ATCC 19433 | – | > 100 µM |
| CN(C)Cc1cc(N(C)C)c2c(c1O)C(=O)C1=C(O)[C@]3(O)C(=O)C(C(N)=O)=C(O)[C@@H](N(C)C)[C@@H]3C[C@@H]1C2 | – | JH2-2(pMV158), Tet L efflux | – | 1 µg/mL |
| CC(=O)[O][Ag]=[c]1n(C)ccn1CC([O-])c1ccccc1.[Na+] (stereo not drawn) | broth dilution | ATCC 19433 | 18 h, 37 °C | 10 µg/mL |
| Oc1c(Cl)cc(Cl)c2cccnc12 | microbial growth, agar dilution | ATCC33186 | – | 37.4 µM |
| CN(C)c1cc(CN2CCCCCC2)c(O)c2c1C[C@H]1C[C@H]3[C@H](N(C)C)C(O)=C(C(N)=O)C(=O)[C@@]3(O)C(O)=C1C2=O | – | JH2-2(pMV158), Tet L efflux | – | 1 µg/mL |
| COc1cc(Cc2cnc(N)nc2N)cc(/C=C/C(=O)N2N=Cc3ccccc3C2Cc2ccc(C)cc2)c1OC (stereo not drawn) | microbial growth, broth dilution | ATCC29212 | – | 0.5 to 1 µg/mL |
| CN(C)c1cc(CN2CCc3ccccc3C2)c(O)c2c1C[C@H]1C[C@H]3[C@H](N(C)C)C(O)=C(C(N)=O)C(=O)[C@@]3(O)C(O)=C1C2=O | – | JH2-2(pMV158), Tet L efflux | – | 0.5 µg/mL |
| CNC(CC(C)C)C(=O)NC1C(=O)NC(CC(N)=O)C(=O)NC2C(=O)NC3C(=O)NC(C(=O)NC(C(=O)NCCCCCCNC(=N)N)c4cc(O)cc(O)c4-c4cc3ccc4O)C(O)c3ccc(c(Cl)c3)Oc3cc2cc(c3OC2OC(CO)C(O)C(O)C2OC2CC(C)(N)C(O)C(C)O2)Oc2ccc(cc2Cl)C1O (stereo not drawn) | broth microdilution | ATCC BAA-2573 VanA | – | 4 µg/mL |
| CN(C)c1cc(CN)c(O)c2c1C[C@H]1C[C@H]3[C@H](N(C)C)C(O)=C(C(N)=O)C(=O)[C@@]3(O)C(O)=C1C2=O | – | JH2-2(pMV158), Tet L efflux | – | 4 µg/mL |

| SMILES | assay | system | setting | MIC |
| --- | --- | --- | --- | --- |
| COc1c(CC=C(C)C)c(O)cc2c1[C@@H]1Oc3c(ccc(O)c3CC=C(C)C)[C@@H]1CO2 | – | ATCC 29212 | – | 128 µg/mL |
| COc1cc(Cc2cnc(N)nc2N)cc(/C=C/C(=O)N2N=Cc3ccccc3C2c2ccccc2)c1OC (stereo not drawn) | – | ATCC 29212 | added: folinic acid 0.1 µg/mL | 0.125 to 0.25 µg/mL |
| CC[C@@H](C)[C@@H](NC(=O)[C@@H](CC(C)C)NC(=O)[C@@H](CCCCN)NC(=O)[C@@H](CC(C)C)NC(=O)[C@@H](CC(C)C)NC(=O)[C@H](NC(=O)[C@@H](Cc1c[nH]cn1)NC(=O)[C@@H](CC(C)C)NC(=O)[C@@H](CCCCN)NC(=O)[C@H](NC(=O)[C@@H](CCCCN)NC(=O)[C@@H](CCCCN)NC(=O)[C@@H](CC(C)C)NC(=O)[C@@H](CO)NC(=O)[C@@H](CCCCN)NC(=O)[C@@H](Cc1ccccc1)NC(=O)[C@H](NC(=O)[C@@H](CCCCN)NC(=O)[C@@H](CC(C)C)NC(=O)[C@@H](Cc1ccccc1)NC(=O)[C@@H](CO)NC(=O)[C@@H](CCCCN)NC(=O)[C@@H](Cc1c[nH]c2ccccc12)NC(=O)[C@@H](CCCCN)NC(C)=O)[C@H](C)O)[C@H](C)O)[C@H](C)O)C(=O)N[C@H](CO)C(=O)N[C@H](CO)C(N)=O | – | ATCC 29212 | 24 h, 37 °C | 16 µg/mL |
| COc1cc(Cc2cnc(N)nc2N)cc(/C=C/C(=O)N2N=Cc3ccccc3C2C=C(C)C)c1OC (stereo not drawn) | – | ATCC 29212 | added: folinic acid 0.1 µg/mL | 0.125 to 0.25 µg/mL |
| CCC(O)CC#Cc1ccc(-n2nnc(/C(C)=N\NC(=N)N)c2C)cc1 (stereo not drawn) | microbial growth, broth dilution | ATCC51299 | – | > 64 µg/mL |
| CNC(CC(C)C)C(=O)NC1C(=O)NC(CC(N)=O)C(=O)NC2C(=O)NC3C(=O)NC(C(=O)NC(C(=O)NCCCNC(=N)N)c4cc(O)cc(O)c4-c4cc3ccc4O)C(O)c3ccc(c(Cl)c3)Oc3cc2cc(c3OC2OC(CO)C(O)C(O)C2OC2CC(C)(N)C(O)C(C)O2)Oc2ccc(cc2Cl)C1O (stereo not drawn) | – | VanB ATCC 51299 | – | 8 µg/mL |
| COc1cc(Cc2cnc(N)nc2N)cc(/C=C/C(=O)N2N=Cc3ccccc3C2Cc2ccccc2)c1OC (stereo not drawn) | microbial growth, broth dilution | ATCC29212 | – | 0.5 µg/mL |
| CC1=CC2(C)C(=C(C)C3C4CC(C)CC(C)C4C4Oc5ccc(cc5)CC5(O)NC(=O)C(=C(O)C2C43)C5Nc2ncnc3c2ncn3C2OC(CO)C(O)C2O)C1C (stereo not drawn) | microbial growth, broth dilution | ATCC29212 | – | 6.3 µM |
| COc1ccc(CC2c3ccccc3C=NN2C(=O)/C=C/c2cc(Cc3cnc(N)nc3N)cc(OC)c2OC)cc1 (stereo not drawn) | microbial growth, broth dilution | ATCC29212 | – | 4 to 8 µg/mL |
| Cc1cc2[nH]c(C(=O)Nc3ccccc3C)c(CN3CCOCC3)c2s1 | broth microdilution | ATCC 29212, LB broth | 20 h | > 200 µM |
| O=[N+]([O-])c1ccc2c(c1)C=[N+]1N3C(=[O+][Cu-2]1([Cl])[O]2)c1ccccc1NC3c1cc([N+](=O)[O-])ccc1O (stereo not drawn) | broth microdilution | ATCC 29213 | 24 h | 256 µg/mL |
| CN(C)c1cc(CNCc2ccncc2)c(O)c2c1C[C@H]1C[C@H]3[C@H](N(C)C)C(O)=C(C(N)=O)C(=O)[C@@]3(O)C(O)=C1C2=O | – | JH2-2(pMV158), Tet L efflux | – | 2 µg/mL |
| COC(Cn1ccn(C)[c]1=[Ag][O]C(C)=O)c1ccccc1 (stereo not drawn) | broth dilution | ATCC 19433 | 18 h, 37 °C | 20 µg/mL |
| CN(C)c1cc(CNC(=O)OCC(C)(C)C)c(O)c2c1C[C@H]1C[C@H]3[C@H](N(C)C)C(O)=C(C(N)=O)C(=O)[C@@]3(O)C(O)=C1C2=O | – | JH2-2(pMV158), Tet L efflux | – | 2 µg/mL |
| c1ccc(CN2CCOCCOCCN(CCCCCCCCCCCCCCN3CCOCCOCCN(CCCCCCCCCCCCCCN4CCOCCOCCN(Cc5ccccc5)CCOCCOCC4)CCOCCOCC3)CCOCCOCC2)cc1 | microbial growth | – | – | 1.5 µM |
| Oc1c(Br)cc(Br)c2nc3cc(F)ccc3nc12 | microbial growth, broth dilution | OG1RF | – | 6.25 µM |
| COc1cc(Cc2cnc(N)nc2N)cc(/C=C/C(=O)N2N=Cc3ccccc3C2C2CCCCC2)c1OC (stereo not drawn) | microbial growth, broth dilution | ATCC29212 | – | 0.25 to 0.5 µg/mL |
| C/C(=N/NC(=N)N)c1nnn(-c2ccc(C#Cc3ccsc3)cc2)c1C | microbial growth, broth dilution | ATCC51299 | – | > 64 µg/mL |

Some of these lines once more:
| SMILES | assay | system | setting | MIC |
| --- | --- | --- | --- | --- |
| CNC(CC(C)C)C(=O)NC1C(=O)NC(CC(N)=O)C(=O)NC2C(=O)NC3C(=O)NC(C(=O)NC(C(=O)NC(CCCNC(=N)N)C(=O)OC)c4cc(O)cc(O)c4-c4cc3ccc4O)C(O)c3ccc(c(Cl)c3)Oc3cc2cc(c3OC2OC(CO)C(O)C(O)C2OC2CC(C)(N)C(O)C(C)O2)Oc2ccc(cc2Cl)C1O (stereo not drawn) | broth microdilution | BM 4166 VanA | – | 8 µg/mL |
| Oc1c(Br)cc(Br)c2nc3cc(F)ccc3nc12 | microbial growth, broth dilution | OG1RF | – | 6.25 µM |
